Results collected from several papers.
Protocols differ between the studies behind these lines.
Chymotrypsinogen A: Chymotrypsinogen A (Bos taurus, UniProt P00766)
PPARA ligand-binding domain: Peroxisome proliferator-activated receptor alpha, ligand-binding domain (PPARA, Homo sapiens, UniProt Q07869)
Sequence of UniProt Q07869 (whole entry, looked up): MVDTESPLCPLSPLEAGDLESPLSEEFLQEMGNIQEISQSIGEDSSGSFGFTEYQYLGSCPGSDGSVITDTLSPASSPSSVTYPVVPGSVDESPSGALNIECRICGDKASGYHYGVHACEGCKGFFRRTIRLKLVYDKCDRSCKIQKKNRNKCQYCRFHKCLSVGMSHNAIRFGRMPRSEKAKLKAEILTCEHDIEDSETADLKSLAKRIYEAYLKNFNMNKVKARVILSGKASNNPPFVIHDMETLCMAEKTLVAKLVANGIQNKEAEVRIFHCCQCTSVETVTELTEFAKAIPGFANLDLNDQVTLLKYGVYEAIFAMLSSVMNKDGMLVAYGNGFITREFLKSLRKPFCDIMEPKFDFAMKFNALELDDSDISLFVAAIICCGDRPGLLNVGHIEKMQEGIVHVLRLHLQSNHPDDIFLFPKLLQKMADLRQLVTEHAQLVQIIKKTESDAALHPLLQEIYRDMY
GBA2: Beta-glucosidase (GBA2, Homo sapiens, UniProt Q9HCG7)
Sequence of UniProt Q9HCG7 (whole entry, looked up): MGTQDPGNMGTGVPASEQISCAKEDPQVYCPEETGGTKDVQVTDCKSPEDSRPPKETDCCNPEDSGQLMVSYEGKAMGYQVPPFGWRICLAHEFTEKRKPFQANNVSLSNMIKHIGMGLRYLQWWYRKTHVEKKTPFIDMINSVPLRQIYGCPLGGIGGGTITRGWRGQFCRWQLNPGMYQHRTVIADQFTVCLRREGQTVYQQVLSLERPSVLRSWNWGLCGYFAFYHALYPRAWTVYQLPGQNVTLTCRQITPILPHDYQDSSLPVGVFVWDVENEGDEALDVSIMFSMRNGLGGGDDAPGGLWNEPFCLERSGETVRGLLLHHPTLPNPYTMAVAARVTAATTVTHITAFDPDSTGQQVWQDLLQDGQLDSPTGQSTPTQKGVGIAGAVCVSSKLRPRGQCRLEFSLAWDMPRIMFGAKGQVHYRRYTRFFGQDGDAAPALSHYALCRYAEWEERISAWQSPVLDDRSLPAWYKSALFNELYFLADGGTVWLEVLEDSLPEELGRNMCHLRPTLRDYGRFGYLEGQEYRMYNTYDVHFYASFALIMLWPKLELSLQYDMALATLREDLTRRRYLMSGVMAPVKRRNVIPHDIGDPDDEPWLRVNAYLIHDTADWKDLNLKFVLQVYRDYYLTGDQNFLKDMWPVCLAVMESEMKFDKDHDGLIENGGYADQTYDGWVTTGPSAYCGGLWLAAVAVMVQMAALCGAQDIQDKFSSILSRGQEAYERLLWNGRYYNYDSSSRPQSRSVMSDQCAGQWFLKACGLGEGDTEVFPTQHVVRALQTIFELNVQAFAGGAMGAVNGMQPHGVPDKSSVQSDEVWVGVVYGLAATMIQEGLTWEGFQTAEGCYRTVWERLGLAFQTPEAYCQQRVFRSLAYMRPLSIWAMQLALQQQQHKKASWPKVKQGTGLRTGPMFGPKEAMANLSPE
Sequence of UniProt O14757 (whole entry, looked up): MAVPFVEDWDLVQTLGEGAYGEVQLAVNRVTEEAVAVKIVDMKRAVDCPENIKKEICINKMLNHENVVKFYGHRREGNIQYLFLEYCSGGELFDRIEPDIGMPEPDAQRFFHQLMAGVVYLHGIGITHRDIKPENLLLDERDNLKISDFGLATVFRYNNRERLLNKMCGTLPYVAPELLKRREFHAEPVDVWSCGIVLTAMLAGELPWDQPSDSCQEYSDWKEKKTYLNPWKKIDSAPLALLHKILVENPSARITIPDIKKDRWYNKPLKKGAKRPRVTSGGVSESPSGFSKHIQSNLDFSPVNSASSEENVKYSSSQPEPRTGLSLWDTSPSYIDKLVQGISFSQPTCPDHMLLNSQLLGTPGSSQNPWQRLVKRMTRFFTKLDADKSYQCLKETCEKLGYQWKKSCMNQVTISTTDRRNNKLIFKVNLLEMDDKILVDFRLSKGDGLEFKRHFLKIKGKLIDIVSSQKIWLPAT
Sequence of UniProt Q15109 (whole entry, looked up): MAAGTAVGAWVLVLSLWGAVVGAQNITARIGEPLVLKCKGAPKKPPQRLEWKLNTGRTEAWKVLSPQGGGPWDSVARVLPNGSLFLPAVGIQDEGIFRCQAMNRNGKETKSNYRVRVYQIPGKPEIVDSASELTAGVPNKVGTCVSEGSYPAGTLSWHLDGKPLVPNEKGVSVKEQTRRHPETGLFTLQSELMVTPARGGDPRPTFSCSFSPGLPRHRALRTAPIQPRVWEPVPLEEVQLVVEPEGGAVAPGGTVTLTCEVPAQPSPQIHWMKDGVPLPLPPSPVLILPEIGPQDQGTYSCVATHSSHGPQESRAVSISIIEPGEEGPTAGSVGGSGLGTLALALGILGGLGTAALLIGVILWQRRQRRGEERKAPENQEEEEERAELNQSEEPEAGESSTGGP
Sequence of UniProt Q15139 (whole entry, looked up): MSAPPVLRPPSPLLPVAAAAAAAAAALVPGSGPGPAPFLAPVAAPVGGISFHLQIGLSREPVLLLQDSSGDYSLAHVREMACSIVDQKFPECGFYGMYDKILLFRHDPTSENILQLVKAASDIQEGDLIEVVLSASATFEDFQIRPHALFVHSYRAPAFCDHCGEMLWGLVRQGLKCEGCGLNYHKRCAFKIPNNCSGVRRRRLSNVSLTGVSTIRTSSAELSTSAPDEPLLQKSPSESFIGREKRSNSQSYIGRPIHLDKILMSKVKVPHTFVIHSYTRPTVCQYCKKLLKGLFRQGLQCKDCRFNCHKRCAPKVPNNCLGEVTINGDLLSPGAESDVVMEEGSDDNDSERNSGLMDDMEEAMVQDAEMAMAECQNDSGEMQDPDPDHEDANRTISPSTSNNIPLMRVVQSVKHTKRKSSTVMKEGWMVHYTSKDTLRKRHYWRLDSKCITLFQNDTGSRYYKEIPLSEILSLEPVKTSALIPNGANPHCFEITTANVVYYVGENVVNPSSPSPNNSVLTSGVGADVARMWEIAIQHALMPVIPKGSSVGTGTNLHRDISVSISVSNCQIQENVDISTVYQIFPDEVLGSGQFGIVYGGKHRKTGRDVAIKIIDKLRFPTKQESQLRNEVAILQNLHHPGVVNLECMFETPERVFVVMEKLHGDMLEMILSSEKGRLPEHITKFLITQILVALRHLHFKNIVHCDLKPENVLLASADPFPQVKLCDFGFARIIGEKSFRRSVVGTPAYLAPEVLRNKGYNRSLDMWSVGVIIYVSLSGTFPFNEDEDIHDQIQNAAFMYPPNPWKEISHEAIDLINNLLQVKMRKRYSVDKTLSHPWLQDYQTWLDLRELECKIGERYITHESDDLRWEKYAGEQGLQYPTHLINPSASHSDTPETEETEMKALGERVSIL
Sequence of UniProt O96013 (whole entry, looked up): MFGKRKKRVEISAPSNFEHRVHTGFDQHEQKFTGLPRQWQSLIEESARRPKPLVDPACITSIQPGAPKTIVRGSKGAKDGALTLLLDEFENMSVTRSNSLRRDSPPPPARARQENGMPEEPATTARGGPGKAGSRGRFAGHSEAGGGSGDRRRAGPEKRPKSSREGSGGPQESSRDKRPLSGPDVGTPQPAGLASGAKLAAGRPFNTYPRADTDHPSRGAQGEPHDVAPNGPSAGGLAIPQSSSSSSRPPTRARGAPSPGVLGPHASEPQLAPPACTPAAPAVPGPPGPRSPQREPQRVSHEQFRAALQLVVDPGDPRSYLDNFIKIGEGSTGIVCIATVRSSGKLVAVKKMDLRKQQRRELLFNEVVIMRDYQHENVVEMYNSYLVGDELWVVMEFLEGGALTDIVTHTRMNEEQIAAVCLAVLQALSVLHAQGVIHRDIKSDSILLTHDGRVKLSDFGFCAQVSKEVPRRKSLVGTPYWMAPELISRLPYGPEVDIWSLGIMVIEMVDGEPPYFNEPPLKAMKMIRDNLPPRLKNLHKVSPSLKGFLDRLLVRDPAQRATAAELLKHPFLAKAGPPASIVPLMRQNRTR

O=C1CC(c2ccccc2)N1S(=O)(=O)c1cccc(Cl)c1 (stereo not drawn)
IC50 (Chymotrypsinogen A; enzyme activity, inhibitor, fluorescence): 400 nM

O=C1/C(=N\c2ccccc2Br)c2ccccc2N1Cc1ccc([N+](=O)[O-])cc1
IC50 (PIK3CG (Homo sapiens, UniProt P48736); enzyme activity, inhibitor, ADP detection): 0.32 nM

CC(=O)NCCOc1ccccc1NC(=O)C(C(F)(F)F)C(F)(F)F
IC50 (Chymotrypsinogen A; enzyme activity, inhibitor, fluorescence): 90000 nM

Cc1c(Cc2cccc(OC(C)C(=O)O)c2Cl)c2ccc(C(=O)NC(C)c3ccc(C(C)(C)C)cc3)cc2n1C (stereo not drawn)
IC50 (PPARA ligand-binding domain; reporter gene, luciferase reporter; HEK293T, Gal4-PPARα LBD): 860 nM

Cc1ccc(-c2nn(-c3ccc(S(C)(=O)=O)cc3)cc2/C=N/N=C2/NC(=O)CS2)cc1
IC50 (EGFR (Homo sapiens, UniProt P00533); enzyme activity, inhibitor): 226 nM

Cc1ccc(-c2ccc(COCCCCCN3C[C@H](O)[C@@H](O)[C@H](O)[C@H]3CO)cc2)cc1
IC50 (GBA2; inhibitor, 4MU-β-D-glucopyranoside; HEK293T homogenates overexpressing GBA2): 3 nM

CCC(=O)N(CCC(c1ccccc1)c1ccco1)Cc1ccc(OC)c(OC)c1 (stereo not drawn)
IC50 (UGT76B1 (Arabidopsis thaliana, UniProt Q9C768); enzyme activity, inhibitor): 84800 nM

Cc1c(Cc2cccc(OC(C)(C)C(=O)O)c2)c2ccc(C(=O)N[C@@H](C)c3cccc(C(C)(C)C)c3)cc2n1CC1CC1
IC50 (PPARA ligand-binding domain; reporter gene, luciferase reporter; HEK293T, Gal4-PPARα LBD): > 100000 nM

N#Cc1cc(C(=O)c2cc(Br)ccc2O)cn(-c2ccccc2Cl)c1=O
IC50 (Adenylate cyclase type 10 (Homo sapiens, UniProt Q96PN6); enzyme activity, inhibitor, enzyme immunoassay): 4400 nM

COc1cc(-c2ccc3c(c2)Nc2ccc(C(=O)N4CCCC4C(=O)O)cc2NC3=O)ccc1O (stereo not drawn)
IC50 (CHEK1 (Homo sapiens, UniProt O14757); enzyme activity, inhibitor): 139 nM

O=C(CCCCCN1C[C@H](O)[C@@H](O)[C@H](O)[C@@H]1CO)NC12CC3CC(CC(C3)C1)C2
IC50 (GBA2; inhibitor, 4MU-β-D-glucopyranoside; HEK293T homogenates overexpressing GBA2): 15 nM

COCC1CN(C2CCN(c3cc(OC)c(Nc4ncc(Br)c(Nc5ccc6c(c5P(C)(C)=O)OCCO6)n4)cc3C)CC2)C1
IC50 (PRKD1 (Homo sapiens, UniProt Q15139); enzyme activity, inhibitor): 81 nM

OC[C@@H]1[C@@H](O)[C@H](O)[C@@H](O)CN1CCCCCOCc1ccc(-c2ccncc2)cc1
IC50 (GBA2; inhibitor, 4MU-β-D-glucopyranoside; HEK293T homogenates overexpressing GBA2): 10 nM

CC1C(=O)N(S(=O)(=O)c2ccc(C#N)cc2)C1c1ccccc1 (racemic)
IC50 (Chymotrypsinogen A; enzyme activity, inhibitor, fluorescence): 2500 nM

CC(C)C(O)C#Cc1ccc2[nH]c3c(c2c1)-c1nc(N)ncc1CCC3 (stereo not drawn)
IC50 (PIP4K2C (Homo sapiens, UniProt Q8TBX8); target engagement in cells, BRET): 20 nM

O=C(Nc1ccc(Cl)cc1)Nc1ccc(C2CC(c3ccc(Cl)cc3)=NN2)cc1 (stereo not drawn)
IC50 (AGER (Homo sapiens, UniProt Q15109)): 72000 nM

Cc1nn(-c2cccc(N)c2)c(=O)c2cnc(Nc3ccc(N4CCNCC4)cc3)nc12
IC50 (PAK4 (Homo sapiens, UniProt O96013); kinase activity, inhibitor, SelectScreen kinase profiling): > 10000 nM

Cc1cnc(Nc2ccc3c(c2)CCN(C(=O)/C=C/C(=O)C2CCCC2)C3)nc1-c1cnn(C(C)C)c1
IC50 (JAK2 (Homo sapiens, UniProt O60674); enzyme activity, inhibitor, ADP detection): 6.71 nM

A few entries again:
OC[C@@H]1[C@@H](O)[C@H](O)[C@@H](O)CN1CCCCCOCc1ccc(-c2ccncc2)cc1
IC50 (GBA2; inhibitor, 4MU-β-D-glucopyranoside; HEK293T homogenates overexpressing GBA2): 10 nM
